Measured values from different studies.
Each line is one published result; not all experiments were run side by side. ± marks the error that the study gave.

| SMILES | assay | system | setting | tissue uptake |
| --- | --- | --- | --- | --- |
| CN1C(=O)[C@@H](Cc2ccc(O)c(I)c2)NC(=O)CNC(=O)[C@H](Cc2ccc3ccccc3c2)NC(=O)[C@H](CCCNC(=N)N)NC(=O)[C@H]1CCCNC(=O)c1ccc(CNC(=O)CN2CCN(CC(=O)O)CCN(CC(=O)O)CCN(CC(=O)O)CC2)cc1 [lutetium-177 labelled] | refers to: 177Lu radioactivity | female CB-17 SCID mice, Daudi xenograft, blood | intravenous, 0.16 nmol per mouse, 96 h | 0.01 ± 0.001 %ID/g |
| O=C([O-])CN1CCN(CC(=O)[O-])CCN(CC(=O)NCCc2ccc3c(c2)C2C=CCC2C(c2cc4c(cc2Br)OCO4)N3)CCN(CC(=O)[O-])CC1.[111In+3] (stereo not drawn) | – | mice with Hec50 tumour xenograft, Hec50 tumour | 2 h | 0.6 ± 0.03 %ID/g |
| N=C(N)NCCC[C@H](NC(=O)CON=C[C@H](F)[C@@H](O)[C@H](O)[C@H](O)CO)C(=O)NCC(=O)N[C@@H](CC(=O)O)C(=O)O [fluorine-18 labelled] | – | nude mice U-87 MG tumour, lung | intravenous, 2 h | 0.47 ± 0.37 %ID/g |
| CCCC[C@H](NC(=O)CN1CCC(NC(=O)CN2CCN(CC(=O)O)CCN(CC(=O)O)CCN(CC(=O)O)CC2)CC1)C(=O)N[C@H]1CC(=O)NCCCC[C@@H](C(N)=O)NC(=O)[C@H](Cc2c[nH]c3ccccc23)NC(=O)[C@H](CCCNC(=N)N)NC(=O)[C@@H](Cc2ccccc2)NC(=O)[C@H](Cc2c[nH]cn2)NC1=O [gallium-68 labelled] | – | C57BL/6J mice male B16-F10 tumour, stomach | 2 h post injection, unblocked | 0.8 ± 0.2 %ID/g |
| CCCC[C@H](NC(=O)CNC(=O)CNC(=O)CN1CCN(CC(=O)O)CCN(CC(=O)O)CCN(CC(=O)O)CC1)C(=O)N[C@H]1CC(=O)NCCCC[C@@H](C(N)=O)NC(=O)[C@H](Cc2c[nH]c3ccccc23)NC(=O)[C@H](CCCNC(=N)N)NC(=O)[C@@H](Cc2ccccc2)NC(=O)[C@H](Cc2c[nH]cn2)NC1=O [gallium-67 labelled] | – | C57 mice, female, B16/F1 melanoma, intestines | intravenous, 0.037 MBq, 2 h | 1.52 ± 1.14 %ID |
| N=C(N)NCCC[C@@H]1NC(=O)[C@H](CCCCNC(=O)CON=C[C@H](F)[C@@H](O)[C@H](O)[C@H](O)CO)NC(=O)[C@@H](Cc2ccc(O)cc2)NC(=O)[C@H](CC(=O)O)NC(=O)CNC1=O [fluorine-18 labelled] | – | nude mice U-87 MG tumour, intestine | intravenous, 0.5 h | 0.5 ± 0.02 %ID/g |
| CCCC[C@H](NC(=O)CNC(=O)CNC(=O)CN1CCN(CC(=O)O)CCN(CC(=O)O)CC1)C(=O)N[C@H]1CC(=O)NCCCC[C@@H](C(N)=O)NC(=O)[C@H](Cc2c[nH]c3ccccc23)NC(=O)[C@H](CCCNC(=N)N)NC(=O)[C@@H](Cc2ccccc2)NC(=O)[C@H](Cc2c[nH]cn2)NC1=O [gallium-67 labelled] | – | female C57 mice, B16/F1 melanoma, kidneys | intravenous, 0.037 MBq, 2 h | 8.34 ± 3.25 %ID/g |
| CC(C)[C@H](NC(=O)[C@@H]1CCCN1C(=O)[C@H](CCCNC(=N)N)NC(=O)[C@H](CS)NC(=O)[C@H](Cc1c[nH]c2ccccc12)NC(=O)[C@H](CCCNC(=N)N)NC(=O)[C@@H](Cc1ccccc1)NC(=O)[C@H](Cc1c[nH]cn1)NC(=O)[C@H](CCC(=O)O)NC(=O)[C@H](CS)NC(=O)[C@H](CS)NC(=O)CNC(=O)[C@@H]1CC(=O)N[C@@H](CCCNC(=N)N)C(=O)NCC(=O)N[C@@H](CC(=O)O)C(=O)N[C@H](Cc2ccc(O)cc2)C(=O)N1)C(N)=O [technetium-99m labelled] | – | C57 mice B16/F1 melanoma female, pancreas | iv, 2 h, added: NDP-MSH 10 µg co-injected | 0.42 ± 0.21 %ID/g |
| O=C([O-])CN1CCN(CC(=O)[O-])CCN(CC(=O)[O-])CCN(CC(=O)[O-])CC1.[64Cu+2] | – | healthy athymic nude mice, heart | intravenous, 1 h | 0.37 %ID/g |
| O=C(NCC1OC2CCC=CCCC2O1)c1ccc(COCCOCCOCC[18F])cc1 (stereo not drawn) | – | female BALB/c nude mice, liver | intravenous, 60 min | 3.9 ± 0.9 %ID/g |
| O=C([O-])c1cccc(CN(CCN(Cc2cn(Cc3ccccc3)nn2)Cc2cccc(C(=O)[O-])n2)Cc2cn(Cc3ccccc3)nn2)n1.[64Cu+2] | – | healthy athymic nude mice, large intestine | intravenous, 4 h | 21.1 %ID/g |
| CCCC[C@@H]1NC(=O)[C@@H](NC(=O)[C@H](CCC(=O)O)NC(=O)CNC(=O)CN2CCN(CC(=O)O)CCN(CC(=O)O)CCN(CC(=O)O)CC2)CCCCNC(=O)C[C@@H](C(N)=O)NC(=O)[C@H](C(C)C)NC(=O)[C@@H]2CCCN2C(=O)[C@H](CCCNC(=N)N)NC(=O)CNC(=O)[C@H](Cc2c[nH]c3ccccc23)NC(=O)[C@H](CCCNC(=N)N)NC(=O)[C@@H](Cc2ccccc2)NC(=O)[C@H](Cc2c[nH]cn2)NC(=O)[C@H](CCC(=O)O)NC1=O [gallium-67 labelled] | – | C57 mice, B16/F1 flank melanoma, bone | intravenous, 2 h, added: blocking peptide 10 µg | 0.18 ± 0.03 %ID/g |

For quick reference, copied from above:
| SMILES | assay | system | setting | tissue uptake |
| --- | --- | --- | --- | --- |
| O=C([O-])c1cccc(CN(CCN(Cc2cn(Cc3ccccc3)nn2)Cc2cccc(C(=O)[O-])n2)Cc2cn(Cc3ccccc3)nn2)n1.[64Cu+2] | – | healthy athymic nude mice, large intestine | intravenous, 4 h | 21.1 %ID/g |
